Measurements from different studies.
Protocols differ between the studies behind these lines. ± marks the error that the study gave.

CC(C)[C@@H]1NC(=O)CNC(=O)[C@H](CC(N)=O)NC(=O)[C@H](CCCNC(=N)N)NC(=O)[C@H](Cc2ccc(O)cc2)NC(=O)[C@H](C(C)C)NC(=O)[C@@H](NC(=O)[C@@H](NC(=O)[C@H](CC(N)=O)NC(=O)[C@H](Cc2c[nH]c3ccccc23)NC(=O)[C@H](C)NC(=O)[C@H](Cc2ccccc2)NC(=O)CN)C(C)C)CSSC[C@@H](C(=O)N[C@@H](Cc2cnc[nH]2)C(=O)N[C@@H](CCCNC(=N)N)C(=O)N[C@@H](CCCNC(=N)N)C(=O)N[C@@H](C)C(=O)N[C@@H](CC(N)=O)C(N)=O)NC(=O)[C@H](C(C)C)NC(=O)[C@H](CCCNC(=N)N)NC1=O  monocytes (ICR mice, blood; intraductal mammary, 10 mg/kg, day 5): 3.09 ± 0.4%
C=C(CN(C(=O)c1c(C(F)F)nn(C)c1F)C1CC1)c1ccc(Cl)cc1Cl  mortality (static acute toxicity test; zebrafish (Brachydanio rerio); 0.578 mg a.i./L, 48 h): 0%
O=S(=O)(Nc1ccccc1)c1ccc(NC(=S)Nc2ccccc2)cc1  mean corpuscular haemoglobin (mouse, male, blood; oral, 80 mg/kg daily, 14 days): 14.9 pg
c1ccc2c(c1)ccc1c3ccccc3ccc21  Vmax (metabolism; pooled human liver microsomes; pH 7.4): 11.7 pmol/min/mg
COc1ncccc1-c1cnn2ccc(N3CCN(C(=O)OC(C)C)CC3)nc12  drug concentration (mouse, open field test, plasma; oral, 30 mg/kg, 60 min): 12 µM
O=C1Nc2cc3[nH]nc(-c4ccncc4)c3cc2CN1Cc1ccccc1  patients with infusion reaction (CTCAE v4.03; advanced solid tumour patients; intravenous, 11.3 mg/kg): 33%
[O-][S+]1CCc2nc(N3CCC(c4ncc(Cl)cn4)CC3)nc(NC3(CO)CCC3)c21 (centres unmarked)  adverse event incidence (measured: Constipation; healthy male humans; 36 mg single dose): 16.7%
COc1cc2c(Oc3ccc4[nH]c(C)cc4c3F)ccnc2cc1OCC1(N)CC1  intestinal obstruction incidence (paediatric refractory sarcoma patients; 12 mg): 9.1%
Cn1nc(NS(C)(=O)=O)c2c(Cl)ccc(-n3c([C@H](Cc4cc(F)cc(F)c4)NC(=O)Cn4nc(C(F)F)c5c4C(F)(F)[C@@H]4C[C@H]54)nc4nc(OCCC(F)(F)F)ccc4c3=O)c21  drug-related adverse events (measured: blood triglycerides increased; human; 125 mg, powder in bottle): 0%
Clc1ccc(-c2cc(Cl)c(Cl)cc2Cl)cc1Cl  dose fraction in milk fat (whole cow milk; 50 nM nominal): 81.1%
C[C@@H]1NC(=O)[C@H](CCCCNC(=O)CO/N=C/C(=O)NCCCC[C@@H]2NC(=O)[C@@H](Cc3ccccc3)NC(=O)[C@H](CC(=O)O)NC(=O)CNC(=O)[C@H](CCCNC(=N)N)NC2=O)NC(=O)CNC(=O)[C@@H]2CCCN2C(=O)[C@H](CCCCNC(=O)CO/N=C/C(=O)NCCCC[C@@H]2NC(=O)[C@@H](Cc3ccccc3)NC(=O)[C@H](CC(=O)O)NC(=O)CNC(=O)[C@H](CCCNC(=N)N)NC2=O)NC(=O)[C@H](CCCCNC(=O)CN2CCCNCCNCCCNCC2)NC(=O)[C@H](CCCCNC(=O)CO/N=C/C(=O)NCCCC[C@@H]2NC(=O)[C@@H](Cc3ccccc3)NC(=O)[C@H](CC(=O)O)NC(=O)CNC(=O)[C@H](CCCNC(=N)N)NC2=O)NC(=O)CNC(=O)[C@@H]2CCCN2C(=O)[C@H](CCCCNC(=O)CO/N=C/C(=O)NCCCC[C@@H]2NC(=O)[C@@H](Cc3ccccc3)NC(=O)[C@H](CC(=O)O)NC(=O)CNC(=O)[C@H](CCCNC(=N)N)NC2=O)NC1=O [copper-64 labelled]  tissue uptake (normal mice, spleen; intravenous, 0.74 MBq, 3 h post-injection): 2.52 ± 0.41 %ID/g
O=C(Nc1ccc2c(c1)B(O)OC2)c1ccc(Oc2ccccc2)cc1  membrane retention (PAMPA; 200 µM, 5 h, pH 7.4): 20.9%
CO[C@H]1C[C@@H]2CC[C@@H](C)[C@@](O)(O2)C(=O)C(=O)N2CCCC[C@H]2C(=O)O[C@H]([C@H](C)C[C@@H]2CC[C@@H](OC(=O)NCCOCCOCCOCCOCCOCCOCCOCCOCCC(=O)N3CCc4cc(Cn5nc(-c6ccc7oc(N)nc7c6)c6c(N)ncnc65)ccc4C3)[C@H](OC)C2)C[C@@H](O)[C@H](C)/C=C(\C)[C@@H](O)[C@@H](OC)C(=O)[C@H](C)C[C@H](C)/C=C/C=C/C=C/1C  TRAE incidence (phase 1 dose escalation, measured: mucositis; advanced solid tumour patients; intravenous, 8 mg weekly, grade ≥3): 0%
Cc1cc(Nc2ncc(Cl)c(Nc3ccccc3S(=O)(=O)C(C)C)n2)c(OC(C)C)cc1C1CCNCC1  MTD (advanced solid tumour patients; oral, daily, together with: gemcitabine): 600 mg

Some of these lines once more:
[O-][S+]1CCc2nc(N3CCC(c4ncc(Cl)cn4)CC3)nc(NC3(CO)CCC3)c21 (centres unmarked)  adverse event incidence (measured: Constipation; healthy male humans; 36 mg single dose): 16.7%
